Measured values from different studies.
± marks the error that the study gave.
UniProt P30989, sequence (whole entry, looked up): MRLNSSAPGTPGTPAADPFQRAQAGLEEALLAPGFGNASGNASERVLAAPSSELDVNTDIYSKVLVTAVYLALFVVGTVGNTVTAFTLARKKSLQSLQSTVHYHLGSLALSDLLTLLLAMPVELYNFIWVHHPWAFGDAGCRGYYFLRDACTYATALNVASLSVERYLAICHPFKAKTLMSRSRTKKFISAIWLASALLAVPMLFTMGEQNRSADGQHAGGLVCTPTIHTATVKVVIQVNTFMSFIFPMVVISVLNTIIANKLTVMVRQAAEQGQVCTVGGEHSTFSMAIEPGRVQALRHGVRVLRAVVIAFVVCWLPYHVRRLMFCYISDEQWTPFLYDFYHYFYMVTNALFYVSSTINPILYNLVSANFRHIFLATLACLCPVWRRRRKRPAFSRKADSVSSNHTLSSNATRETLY
UniProt P21554, sequence (whole entry, looked up): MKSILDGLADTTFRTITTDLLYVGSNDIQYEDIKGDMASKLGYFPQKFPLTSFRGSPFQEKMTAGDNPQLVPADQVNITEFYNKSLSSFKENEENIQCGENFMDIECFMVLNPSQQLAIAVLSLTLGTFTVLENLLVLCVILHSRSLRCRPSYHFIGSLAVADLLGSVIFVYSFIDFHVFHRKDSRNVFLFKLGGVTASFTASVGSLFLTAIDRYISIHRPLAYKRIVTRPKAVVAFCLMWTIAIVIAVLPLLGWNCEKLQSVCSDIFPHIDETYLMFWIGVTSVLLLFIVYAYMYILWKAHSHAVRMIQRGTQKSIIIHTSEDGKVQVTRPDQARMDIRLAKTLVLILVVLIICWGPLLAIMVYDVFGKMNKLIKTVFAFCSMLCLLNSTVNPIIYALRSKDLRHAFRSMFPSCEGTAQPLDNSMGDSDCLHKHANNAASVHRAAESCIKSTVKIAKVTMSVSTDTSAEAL
UniProt P43403, sequence (whole entry, looked up): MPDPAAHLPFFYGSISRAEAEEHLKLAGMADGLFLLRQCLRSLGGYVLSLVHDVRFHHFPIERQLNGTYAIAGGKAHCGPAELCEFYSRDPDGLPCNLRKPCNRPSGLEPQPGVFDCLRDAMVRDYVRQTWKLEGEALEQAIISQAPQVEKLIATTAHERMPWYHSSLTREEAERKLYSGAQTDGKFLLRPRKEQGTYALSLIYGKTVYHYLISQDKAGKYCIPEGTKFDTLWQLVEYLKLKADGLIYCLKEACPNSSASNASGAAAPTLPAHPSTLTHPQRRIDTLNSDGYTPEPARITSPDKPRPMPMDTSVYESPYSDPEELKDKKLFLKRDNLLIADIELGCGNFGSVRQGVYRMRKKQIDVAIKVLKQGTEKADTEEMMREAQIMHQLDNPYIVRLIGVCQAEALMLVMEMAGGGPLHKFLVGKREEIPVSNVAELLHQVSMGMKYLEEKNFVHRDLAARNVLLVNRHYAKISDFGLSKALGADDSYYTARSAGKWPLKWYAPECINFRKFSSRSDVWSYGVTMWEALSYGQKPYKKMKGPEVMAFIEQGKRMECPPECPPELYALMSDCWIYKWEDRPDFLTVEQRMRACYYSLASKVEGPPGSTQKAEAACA
UniProt Q00526, sequence (whole entry, looked up): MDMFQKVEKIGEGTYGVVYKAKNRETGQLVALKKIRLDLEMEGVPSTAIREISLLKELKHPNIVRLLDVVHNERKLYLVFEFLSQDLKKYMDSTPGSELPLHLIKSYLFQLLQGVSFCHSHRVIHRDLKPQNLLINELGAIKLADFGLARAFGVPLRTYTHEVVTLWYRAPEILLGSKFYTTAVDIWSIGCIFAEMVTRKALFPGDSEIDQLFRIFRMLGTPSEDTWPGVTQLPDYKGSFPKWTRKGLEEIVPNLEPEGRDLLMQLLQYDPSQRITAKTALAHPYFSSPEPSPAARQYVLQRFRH
UniProt P21709, sequence (whole entry, looked up): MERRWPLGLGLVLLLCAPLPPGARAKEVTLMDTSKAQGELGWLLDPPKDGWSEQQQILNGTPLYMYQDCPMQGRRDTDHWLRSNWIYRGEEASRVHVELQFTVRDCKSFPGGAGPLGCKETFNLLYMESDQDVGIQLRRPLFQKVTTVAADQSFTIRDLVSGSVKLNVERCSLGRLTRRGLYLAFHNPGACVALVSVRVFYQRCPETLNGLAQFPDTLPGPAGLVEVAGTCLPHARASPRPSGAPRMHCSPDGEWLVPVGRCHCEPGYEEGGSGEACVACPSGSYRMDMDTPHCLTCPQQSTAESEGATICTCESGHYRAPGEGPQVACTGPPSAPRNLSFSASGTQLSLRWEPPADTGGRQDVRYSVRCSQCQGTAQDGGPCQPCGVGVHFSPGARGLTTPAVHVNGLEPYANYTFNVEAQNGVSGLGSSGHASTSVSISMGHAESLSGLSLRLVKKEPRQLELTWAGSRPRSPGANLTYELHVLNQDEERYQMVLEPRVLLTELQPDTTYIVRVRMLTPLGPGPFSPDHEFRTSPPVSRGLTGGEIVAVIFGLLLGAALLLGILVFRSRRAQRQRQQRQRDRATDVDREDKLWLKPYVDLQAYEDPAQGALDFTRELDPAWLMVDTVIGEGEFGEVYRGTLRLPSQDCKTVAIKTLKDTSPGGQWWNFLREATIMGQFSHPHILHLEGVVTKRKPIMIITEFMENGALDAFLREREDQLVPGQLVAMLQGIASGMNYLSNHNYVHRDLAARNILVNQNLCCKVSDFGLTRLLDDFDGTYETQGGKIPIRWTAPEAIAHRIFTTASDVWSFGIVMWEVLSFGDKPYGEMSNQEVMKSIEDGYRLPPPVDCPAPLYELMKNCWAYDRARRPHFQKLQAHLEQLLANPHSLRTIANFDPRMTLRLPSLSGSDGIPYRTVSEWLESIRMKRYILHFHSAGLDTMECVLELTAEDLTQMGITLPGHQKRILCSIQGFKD
UniProt Q9GZV3, sequence (whole entry, looked up): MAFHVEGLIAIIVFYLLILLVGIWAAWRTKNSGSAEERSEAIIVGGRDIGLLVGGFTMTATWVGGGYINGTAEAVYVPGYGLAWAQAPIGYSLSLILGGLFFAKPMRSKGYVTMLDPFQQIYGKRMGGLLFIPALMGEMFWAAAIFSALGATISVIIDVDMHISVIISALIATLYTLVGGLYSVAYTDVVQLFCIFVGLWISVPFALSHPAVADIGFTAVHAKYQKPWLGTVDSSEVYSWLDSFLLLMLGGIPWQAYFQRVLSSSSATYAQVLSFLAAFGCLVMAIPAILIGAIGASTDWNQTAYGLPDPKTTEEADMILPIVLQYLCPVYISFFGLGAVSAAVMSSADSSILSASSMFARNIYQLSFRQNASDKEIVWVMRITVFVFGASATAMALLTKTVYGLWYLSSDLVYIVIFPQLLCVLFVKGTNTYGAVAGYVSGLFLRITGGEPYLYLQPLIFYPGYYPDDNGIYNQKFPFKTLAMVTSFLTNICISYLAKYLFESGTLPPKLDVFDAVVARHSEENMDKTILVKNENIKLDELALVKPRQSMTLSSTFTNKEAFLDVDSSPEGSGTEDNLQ
UniProt Q9P289, sequence (whole entry, looked up): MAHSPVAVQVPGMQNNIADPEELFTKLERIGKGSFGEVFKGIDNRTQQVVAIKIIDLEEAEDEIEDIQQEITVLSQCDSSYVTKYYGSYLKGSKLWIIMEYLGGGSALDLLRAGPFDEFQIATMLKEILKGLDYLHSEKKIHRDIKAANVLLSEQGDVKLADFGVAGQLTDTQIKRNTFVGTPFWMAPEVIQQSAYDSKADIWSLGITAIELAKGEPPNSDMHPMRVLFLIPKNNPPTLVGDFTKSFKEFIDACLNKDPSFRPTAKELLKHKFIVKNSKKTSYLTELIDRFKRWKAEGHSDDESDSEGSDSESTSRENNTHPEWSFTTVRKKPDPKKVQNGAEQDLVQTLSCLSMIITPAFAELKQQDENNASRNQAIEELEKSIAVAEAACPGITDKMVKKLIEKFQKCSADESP
UniProt Q8TCG2, sequence (whole entry, looked up): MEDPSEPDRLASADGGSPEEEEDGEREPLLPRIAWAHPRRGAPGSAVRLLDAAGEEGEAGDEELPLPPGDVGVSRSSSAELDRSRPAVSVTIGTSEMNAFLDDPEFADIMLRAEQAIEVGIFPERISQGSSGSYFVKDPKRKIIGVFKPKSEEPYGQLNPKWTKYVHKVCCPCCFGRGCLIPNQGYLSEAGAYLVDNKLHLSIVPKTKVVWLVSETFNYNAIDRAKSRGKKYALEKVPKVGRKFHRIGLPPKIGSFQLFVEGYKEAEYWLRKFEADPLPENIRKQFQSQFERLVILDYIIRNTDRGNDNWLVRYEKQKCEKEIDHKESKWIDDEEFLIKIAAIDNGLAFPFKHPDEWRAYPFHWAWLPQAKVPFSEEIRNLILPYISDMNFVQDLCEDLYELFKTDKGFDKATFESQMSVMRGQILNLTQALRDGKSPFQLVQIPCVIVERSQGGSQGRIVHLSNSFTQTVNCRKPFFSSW

CS(C)(=O)=Nc1ccc(-c2ccc(-c3nc4cc(O[C@@H]5CO[C@H]6[C@@H]5OC[C@H]6O)[nH]c4cc3F)cc2)cc1  inhibition (EPHA1 (Homo sapiens, UniProt P21709); enzyme activity, inhibitor; 10 µM): -4%
CC(C)[C@H]1NC(=O)C[C@H]2/C=C/CCSSC[C@@H](NC1=O)C(=O)N[C@H](Cc1cccc3ccccc13)C(=O)NCC(=O)O2  inhibition (STK26 (Homo sapiens, UniProt Q9P289); enzyme activity, inhibitor; 10 µM): 7%
O=C1NC(=O)c2c1c1cc(F)c[n+]3c1c1c2c2cc(O)ccc2[n]1[Ru-4]312([N]=C=S)[S+]3CC[S+]1CC[S+]2CC3 (centres unmarked)  remaining activity (ZAP70 (Homo sapiens, UniProt P43403); enzyme activity; 100 nM, human enzyme, together with: 10 µM ATP; baseline: untreated): 134%
Cc1sc2c(c1C)C(c1ccc(Cl)cc1)=NC(CC(=O)OC(C)(C)C)c1nnc(C)n1-2 (centres unmarked)  remaining binding (NTSR1 (Homo sapiens, UniProt P30989); ligand displacement, radioligand; 1 µM): 104%
CN(C)[C@H]1C[C@@]23CC[C@@]4(O2)C(=CC[C@]2(C)[C@@H](c5ccc6ccncc6c5)CC[C@H]24)C=C3[C@@H](O)[C@@H]1O  inhibition (PI4K2B (Homo sapiens, UniProt Q8TCG2); ATP probe labelling, inhibitor, KiNativ profiling; 1 µM): 11.8%
N[C@H](C(=O)N1CCCC1)C1CCN(c2nccc3c(-c4ncc(Cl)cc4Cl)cccc23)CC1  inhibition (SLC5A7 (Homo sapiens, UniProt Q9GZV3); ligand displacement; 10 µM): 58%
Cc1ccc2c(C(C[N+](=O)[O-])c3cccs3)c(-c3ccccc3)[nH]c2c1 (centres unmarked)  Emax (Cannabinoid receptor 1, with GoB (CNR1, Homo sapiens, UniProt P21554); GoB dissociation, agonist, BRET): 60.1 ± 4.56%
Nc1ccc(/C=C/C(=O)N2CCc3c(oc4c(-c5ccc(F)cc5)cc(-c5ccc(C(=O)N6CCC(F)(F)CC6)cn5)cc34)C2)cn1  remaining binding (CDK3 (Homo sapiens, UniProt Q00526); binding, competition with immobilised ligand; 1 µM): 97%

Excerpt of the above:
N[C@H](C(=O)N1CCCC1)C1CCN(c2nccc3c(-c4ncc(Cl)cc4Cl)cccc23)CC1  inhibition (SLC5A7 (Homo sapiens, UniProt Q9GZV3); ligand displacement; 10 µM): 58%
